Assay results gathered from unrelated publications.
Numbered parts are unrelated; each lists some results of a single study.
UniProt P42681, sequence (whole entry, looked up): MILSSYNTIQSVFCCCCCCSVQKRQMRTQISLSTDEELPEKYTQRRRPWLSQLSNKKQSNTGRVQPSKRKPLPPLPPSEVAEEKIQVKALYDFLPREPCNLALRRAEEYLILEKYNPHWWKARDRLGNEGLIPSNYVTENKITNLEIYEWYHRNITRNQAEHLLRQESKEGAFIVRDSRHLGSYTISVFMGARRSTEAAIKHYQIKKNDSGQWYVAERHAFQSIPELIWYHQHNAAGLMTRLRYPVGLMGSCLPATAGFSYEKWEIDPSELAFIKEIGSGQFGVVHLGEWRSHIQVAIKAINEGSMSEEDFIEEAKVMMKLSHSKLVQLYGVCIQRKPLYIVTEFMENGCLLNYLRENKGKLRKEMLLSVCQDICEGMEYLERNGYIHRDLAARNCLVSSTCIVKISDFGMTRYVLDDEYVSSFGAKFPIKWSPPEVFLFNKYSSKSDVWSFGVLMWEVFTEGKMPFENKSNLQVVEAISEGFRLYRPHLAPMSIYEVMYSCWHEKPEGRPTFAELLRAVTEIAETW
UniProt P53671, sequence (whole entry, looked up): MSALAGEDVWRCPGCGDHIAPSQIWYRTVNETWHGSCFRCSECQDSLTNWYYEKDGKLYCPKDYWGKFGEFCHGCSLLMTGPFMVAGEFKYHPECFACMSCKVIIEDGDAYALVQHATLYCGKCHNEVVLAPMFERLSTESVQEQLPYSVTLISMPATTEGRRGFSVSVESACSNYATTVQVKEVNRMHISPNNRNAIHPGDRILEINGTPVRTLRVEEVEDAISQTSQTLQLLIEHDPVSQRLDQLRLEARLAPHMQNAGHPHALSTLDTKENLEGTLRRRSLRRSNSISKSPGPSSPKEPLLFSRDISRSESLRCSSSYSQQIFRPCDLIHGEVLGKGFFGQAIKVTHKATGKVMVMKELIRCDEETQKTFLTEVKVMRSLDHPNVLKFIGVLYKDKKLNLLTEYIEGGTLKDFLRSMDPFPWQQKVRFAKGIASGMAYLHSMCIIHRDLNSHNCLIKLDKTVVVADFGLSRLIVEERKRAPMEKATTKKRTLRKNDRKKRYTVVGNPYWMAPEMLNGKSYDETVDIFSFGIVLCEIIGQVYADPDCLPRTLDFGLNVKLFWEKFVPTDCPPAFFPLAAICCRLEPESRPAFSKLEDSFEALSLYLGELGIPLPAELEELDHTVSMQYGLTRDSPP
UniProt P31751, sequence (whole entry, looked up): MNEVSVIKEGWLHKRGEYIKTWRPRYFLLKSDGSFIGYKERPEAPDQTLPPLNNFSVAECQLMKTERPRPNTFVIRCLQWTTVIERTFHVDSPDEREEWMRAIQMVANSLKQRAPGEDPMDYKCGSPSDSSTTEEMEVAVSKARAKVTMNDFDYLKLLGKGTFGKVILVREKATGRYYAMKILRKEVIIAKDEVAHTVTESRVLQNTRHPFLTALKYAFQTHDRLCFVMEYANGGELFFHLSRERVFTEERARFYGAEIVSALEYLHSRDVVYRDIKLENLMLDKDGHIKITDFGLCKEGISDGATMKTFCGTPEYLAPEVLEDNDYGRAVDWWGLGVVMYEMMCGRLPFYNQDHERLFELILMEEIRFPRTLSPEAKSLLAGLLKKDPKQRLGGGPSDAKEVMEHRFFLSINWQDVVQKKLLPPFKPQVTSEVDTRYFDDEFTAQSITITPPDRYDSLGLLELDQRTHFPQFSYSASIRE
UniProt P49841, sequence (whole entry, looked up): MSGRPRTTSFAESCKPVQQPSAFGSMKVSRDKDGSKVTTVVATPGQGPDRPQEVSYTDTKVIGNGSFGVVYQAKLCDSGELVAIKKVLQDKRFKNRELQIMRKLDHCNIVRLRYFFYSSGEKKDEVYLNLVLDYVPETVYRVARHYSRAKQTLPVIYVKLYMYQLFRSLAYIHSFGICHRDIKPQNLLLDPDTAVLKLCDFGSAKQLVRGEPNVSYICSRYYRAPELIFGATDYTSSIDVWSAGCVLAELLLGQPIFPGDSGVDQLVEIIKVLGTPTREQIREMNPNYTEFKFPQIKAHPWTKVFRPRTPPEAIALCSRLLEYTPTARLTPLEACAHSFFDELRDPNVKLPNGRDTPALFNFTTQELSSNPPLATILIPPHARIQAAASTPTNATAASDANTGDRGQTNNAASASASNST
UniProt Q52WX2, sequence (whole entry, looked up): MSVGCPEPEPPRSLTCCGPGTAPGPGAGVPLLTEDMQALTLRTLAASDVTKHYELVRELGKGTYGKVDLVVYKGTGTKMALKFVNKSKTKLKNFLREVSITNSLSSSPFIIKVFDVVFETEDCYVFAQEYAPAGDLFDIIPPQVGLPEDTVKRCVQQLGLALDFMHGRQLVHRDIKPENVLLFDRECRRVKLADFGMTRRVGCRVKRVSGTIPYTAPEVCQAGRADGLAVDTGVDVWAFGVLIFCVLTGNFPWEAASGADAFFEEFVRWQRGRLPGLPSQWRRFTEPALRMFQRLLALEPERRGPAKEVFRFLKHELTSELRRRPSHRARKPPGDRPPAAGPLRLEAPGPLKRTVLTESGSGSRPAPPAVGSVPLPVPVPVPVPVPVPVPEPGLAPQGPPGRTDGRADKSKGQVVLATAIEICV
UniProt P30291, sequence (whole entry, looked up): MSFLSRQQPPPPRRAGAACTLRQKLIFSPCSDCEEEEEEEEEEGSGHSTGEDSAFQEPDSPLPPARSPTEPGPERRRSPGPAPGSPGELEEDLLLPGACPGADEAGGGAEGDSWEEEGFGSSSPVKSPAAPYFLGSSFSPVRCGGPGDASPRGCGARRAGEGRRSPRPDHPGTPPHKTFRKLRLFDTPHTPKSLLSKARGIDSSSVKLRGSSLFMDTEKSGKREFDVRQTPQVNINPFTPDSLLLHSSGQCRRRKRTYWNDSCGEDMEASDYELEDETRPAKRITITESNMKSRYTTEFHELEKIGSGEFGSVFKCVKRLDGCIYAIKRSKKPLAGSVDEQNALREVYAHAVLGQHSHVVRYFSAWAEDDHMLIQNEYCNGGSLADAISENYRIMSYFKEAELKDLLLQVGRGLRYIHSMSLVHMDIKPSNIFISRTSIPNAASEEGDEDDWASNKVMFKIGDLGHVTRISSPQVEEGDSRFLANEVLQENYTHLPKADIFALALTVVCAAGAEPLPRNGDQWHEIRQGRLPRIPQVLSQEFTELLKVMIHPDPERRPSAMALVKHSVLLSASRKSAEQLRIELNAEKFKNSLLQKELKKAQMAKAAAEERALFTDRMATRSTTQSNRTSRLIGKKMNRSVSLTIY

Study 1 — read-out: enzyme activity; action: inhibitor; concentration: 10 µM
Target: Calcium/calmodulin-dependent protein kinase type II subunit alpha (CAMK2A, Homo sapiens, UniProt Q9UQM7)
UniProt Q9UQM7, sequence (whole entry, looked up): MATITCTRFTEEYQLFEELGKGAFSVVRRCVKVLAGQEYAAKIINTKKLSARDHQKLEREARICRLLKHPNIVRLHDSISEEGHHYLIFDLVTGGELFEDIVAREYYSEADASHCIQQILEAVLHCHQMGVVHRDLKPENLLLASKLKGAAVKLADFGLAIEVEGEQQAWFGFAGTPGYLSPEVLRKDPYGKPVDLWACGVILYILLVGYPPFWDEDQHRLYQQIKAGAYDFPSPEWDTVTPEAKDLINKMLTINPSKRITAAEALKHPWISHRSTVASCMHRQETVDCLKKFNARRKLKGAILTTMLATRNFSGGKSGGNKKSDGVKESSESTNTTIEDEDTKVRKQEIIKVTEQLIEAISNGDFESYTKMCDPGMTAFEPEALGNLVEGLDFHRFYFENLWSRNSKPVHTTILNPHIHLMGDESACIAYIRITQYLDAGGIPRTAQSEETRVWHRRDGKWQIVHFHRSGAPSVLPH
SMILES | inhibition [%]
COc1cc(O)c(C(=O)Nc2nc(C(=O)NCCN(C(C)C)C(C)C)cs2)cc1OC | -9
CC(O)(P(=O)(O)O)P(=O)(O)O | -2
COC(=O)[C@@H](N)Cc1ccc(O)cc1 | -13
COC(=O)C1=C(O)c2ccccc2C(=O)[C@]1(CC=C(C)C)C1=CC(=O)c2ccccc2C1=O | 19
OC[C@@H](O)[C@@H](O)[C@H](O)[C@H](O)CO | 0.11
CC1=C(CC[C@@H](C)CO[C@@H]2O[C@H](CO)[C@@H](O)[C@H](O)[C@H]2O)O[C@H]2C[C@H]3[C@@H]4CC=C5C[C@@H](O[C@@H]6O[C@H](CO)[C@@H](O[C@@H]7O[C@@H](C)[C@H](O)[C@@H](O)[C@H]7O)[C@H](O)[C@H]6O[C@@H]6O[C@@H](C)[C@H](O)[C@@H](O)[C@H]6O)CC[C@]5(C)[C@H]4CC[C@]3(C)[C@@H]12 | -80

Study 2 — read-out: enzyme activity; action: inhibitor; concentration: 0.5 µM; baseline: control
Target: Casein kinase I isoform gamma-2 (CSNK1G2, Homo sapiens, UniProt P78368)
UniProt P78368, sequence (whole entry, looked up): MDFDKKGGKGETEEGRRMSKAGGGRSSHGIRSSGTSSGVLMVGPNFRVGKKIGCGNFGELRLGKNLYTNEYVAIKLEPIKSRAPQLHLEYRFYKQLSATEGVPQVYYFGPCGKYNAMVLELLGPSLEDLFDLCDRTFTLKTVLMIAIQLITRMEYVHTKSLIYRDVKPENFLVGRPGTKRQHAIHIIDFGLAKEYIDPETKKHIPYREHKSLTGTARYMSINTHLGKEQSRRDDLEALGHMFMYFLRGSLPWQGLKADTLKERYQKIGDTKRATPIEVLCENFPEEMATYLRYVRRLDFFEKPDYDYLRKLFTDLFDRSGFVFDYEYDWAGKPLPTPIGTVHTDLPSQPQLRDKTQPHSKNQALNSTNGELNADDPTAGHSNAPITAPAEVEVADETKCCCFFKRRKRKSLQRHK
SMILES | remaining activity
Nc1[nH]nc2nc3ccccc3nc12 | 93.8%
COc1ccc(CNC(=O)Nc2ncc([N+](=O)[O-])s2)cc1 | 100%
Oc1ccc(-c2nc(-c3ccncc3)c(-c3ccc(F)cc3)[nH]2)cc1 | 91.9%
N#CC(C#N)=C(N)/C(C#N)=C/c1ccc(O)cc1 | 104%
CNC(=O)c1cc(Oc2ccc(NC(=O)Nc3ccc(Cl)c(C(F)(F)F)c3)cc2)ccn1 | 88.9%
COc1ccc(C(=O)Nc2sc3c(c2C(N)=O)CCCC3)cc1OC | 98.7%
NCCNc1ncc(C(N)=O)c(Nc2cccc(C(F)(F)F)c2)n1 | 76.6%
O=c1c2ccccc2[nH]c(=S)n1CCN1CCC(=C(c2ccc(F)cc2)c2ccc(F)cc2)CC1 | 98.6%
Cc1cccc(-c2[nH]c(C(C)(C)C)nc2-c2ccc3c(c2)OCO3)n1 | 104%
O=C(CCCc1ccc(-c2ccccc2F)cc1)Nc1ccc(O)cc1 | 99.4%
CO[C@H]1C[C@@H]2CC[C@@H](C)[C@@](O)(O2)C(=O)C(=O)N2CCCC[C@H]2C(=O)O[C@H]([C@H](C)C[C@@H]2CC[C@@H](O)[C@H](OC)C2)CC(=O)[C@H](C)/C=C(\C)[C@@H](O)[C@@H](OC)C(=O)[C@H](C)C[C@H](C)/C=C/C=C/C=C/1C | 94.8%
COc1ccc(OC)c2c(=S)c3ccccc3[nH]c12 | 103%
Cn1sc(=O)n(Cc2ccccc2)c1=O | 95%
CC(C)[C@H](CO)Nc1nc(Nc2cc(N)cc(Cl)c2)c2ncn(C(C)C)c2n1 | 35.2%

Study 3 — method: competition with immobilised ligand; concentration: 1 µM
Structure (SMILES): CO[C@H]1CC[C@H](CNc2ccc(S(=O)(=O)NC(=O)c3ccc(N4CCN(CC5=C(c6ccc(Cl)cc6)CC(C)(C)CC5)CC4)cc3Oc3cnc4[nH]ccc4c3)cc2[N+](=O)[O-])CC1
target | test | remaining binding [%]
Wee1-like protein kinase (WEE1, Homo sapiens, UniProt P30291) | cell-free assay | 100
Serine/threonine-protein kinase SBK1 (SBK1, Homo sapiens, UniProt Q52WX2) | cell-free assay | 100
Tyrosine-protein kinase TXK (TXK, Homo sapiens, UniProt P42681) | binding | 100
Glycogen synthase kinase-3 beta (GSK3B, Homo sapiens, UniProt P49841) | cell-free assay | 100
RAC-beta serine/threonine-protein kinase (AKT2, Homo sapiens, UniProt P31751) | cell-free assay | 80
LIM domain kinase 2 (LIMK2, Homo sapiens, UniProt P53671) | cell-free assay | 80

Study 4 — action: agonist
Target: Beta-1 adrenergic receptor (ADRB1, Homo sapiens, UniProt P08588)
UniProt P08588, sequence (whole entry, looked up): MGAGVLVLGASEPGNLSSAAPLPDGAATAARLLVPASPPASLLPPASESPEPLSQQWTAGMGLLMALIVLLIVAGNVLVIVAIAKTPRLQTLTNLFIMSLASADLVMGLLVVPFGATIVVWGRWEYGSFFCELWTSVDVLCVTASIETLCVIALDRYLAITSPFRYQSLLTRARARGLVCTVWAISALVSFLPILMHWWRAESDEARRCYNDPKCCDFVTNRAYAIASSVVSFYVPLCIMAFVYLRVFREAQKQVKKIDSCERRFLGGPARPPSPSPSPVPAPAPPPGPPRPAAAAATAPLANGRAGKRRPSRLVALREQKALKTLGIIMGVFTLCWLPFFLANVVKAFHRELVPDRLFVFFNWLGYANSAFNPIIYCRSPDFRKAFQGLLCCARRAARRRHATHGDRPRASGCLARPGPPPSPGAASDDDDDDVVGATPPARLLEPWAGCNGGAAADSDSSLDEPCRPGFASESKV
SMILES | EC50 [µM]
N#Cc1ccc(C(=O)Nc2ccc([C@@H](O)[C@H]3COCC(=O)N3CCCc3ccccc3)cc2)cc1 | ≥ 100
Cc1cccc(-c2n[nH]cc2-c2ccc(F)c(-c3cnn(CCO)c3)c2)n1 | ≥ 100
CN(C)c1cccc(-c2nc(N3CCOCC3)cc3c2CN(Cc2cnn(C)c2)C3=O)c1 | ≥ 100
Cc1noc2c(N3CCOCC3)cc(-c3ccc(F)cc3)nc12 | ≥ 100
CN1CCC(Cn2ccc3c(N4CCOCC4)nc(-c4cccc5[nH]ncc45)cc32)CC1 | ≥ 100
CC(O)CN1CCN(c2cnc3ccccc3n2)C(C)C1 (stereo not drawn) | ≥ 100
Cc1noc2c(-c3cccnc3)cc(-c3ccc(F)cc3)nc12 | ≥ 100

Repeated from above (study 2):
SMILES | remaining activity
CNC(=O)c1cc(Oc2ccc(NC(=O)Nc3ccc(Cl)c(C(F)(F)F)c3)cc2)ccn1 | 88.9%
COc1ccc(C(=O)Nc2sc3c(c2C(N)=O)CCCC3)cc1OC | 98.7%
NCCNc1ncc(C(N)=O)c(Nc2cccc(C(F)(F)F)c2)n1 | 76.6%
